Published values gathered from unrelated publications.
Numbers after ± are the reported error.

| Structure (SMILES) | assay | test system | setting | tissue uptake |
| --- | --- | --- | --- | --- |
| CC(C)Cc1ccc(C(C)C(=O)N[C@@H](CCCCNC(=O)CCOCCOCCOCCOCCOCCOCCNC(=O)CN2CCN(CC(=O)[O-])CCN(CC(=O)[O-])CCN(CC(=O)[O-])CC2)C(=O)Nc2cccc3c(C(=O)NCC(=O)N4CC(F)(F)C[C@H]4C#N)ccnc23)cc1.[177Lu+3] (stereo partly drawn) | – | mouse, U-87 MG tumour xenograft, spleen | 24 h | 0.68 ± 0.25 %ID/g |
| COc1cccc(OC)c1-c1cc(C(=O)NC2(C(=O)O)C3CC4CC(C3)CC2C4)nn1-c1ccc(C(=O)N(C)CCCN(C)CCCN(C)C(=O)[C@H](CCCCNC(=O)[C@H](CC(C)C)NC(=O)C2OC2C(=O)O)NC(=O)CN2CCN(CC(=O)[O-])CCN(CC(=O)[O-])CCN(CC(=O)[O-])CC2)cc1C(C)C.[177Lu+3] (mixture of isomers) | – | mouse HT-29 xenograft, large intestine | 4 h post injection, biodistribution | 1.7 %ID/g |
| N#C[C@@H]1CC(F)(F)CN1C(=O)CNC(=O)c1ccnc2c(NC(=O)CCOCCOCCOCCOCCOCCOCCNC(=O)[C@H](CCCCNC(=O)CN3CCN(CC(=O)[O-])CCN(CC(=O)[O-])CCN(CC(=O)[O-])CC3)NC(=O)CCCc3ccc(I)cc3)cccc12.[177Lu+3] | – | mouse, U-87 MG tumour xenograft, kidneys | 4 h | 1.79 ± 0.52 %ID/g |
| COc1cccc(OC)c1-c1cc(C(=O)NC2(C(=O)O)C3CC4CC(C3)CC2C4)nn1-c1ccc(C(=O)N(C)CCOCCN(C)C(=O)[C@H](CCCCNC(=O)[C@H](CC(C)C)NC(=O)C2OC2C(=O)O)NC(=O)CN2CCN(CC(=O)[O-])CCN(CC(=O)[O-])CCN(CC(=O)[O-])CC2)cc1C(C)C.[177Lu+3] (mixture of isomers) | – | mouse, HT-29 xenograft, liver | 168 h post injection | 0.3 %ID/g |
| N#C[C@@H]1CC(F)(F)CN1C(=O)CNC(=O)c1ccnc2c(NC(=O)[C@H](CCCCNC(=O)CCOCCOCCOCCOCCOCCOCCNC(=O)CN3CCN(CC(=O)[O-])CCN(CC(=O)[O-])CCN(CC(=O)[O-])CC3)NC(=O)CCCc3ccc(I)cc3)cccc12.[177Lu+3] | – | mouse, U-87 MG tumour xenograft, kidneys | 96 h | 0.64 ± 0.18 %ID/g |
| COc1cccc(OC)c1-c1cc(C(=O)NC2(C(=O)O)C3CC4CC(C3)CC2C4)nn1-c1ccc(C(=O)N(C)CCCN(C)C(=O)[C@H](CCCCNC(=O)[C@H](CC(C)C)NC(=O)C2OC2C(=O)O)NC(=O)CN2CCN(CC(=O)[O-])CCN(CC(=O)[O-])CCN(CC(=O)[O-])CC2)cc1C(C)C.[177Lu+3] (mixture of isomers) | – | mouse HT-29 xenograft, small intestine | 4 h post injection, biodistribution | 0.38 %ID/g |
| CCCC[C@H](NC(=O)CNC(=O)CNC(=O)[C@H](CCCCNC(=O)[C@H](CC(=O)O)NC(=O)C(C)c1ccc(CC(C)C)cc1)NC(=O)CN1CCN(CC(=O)O)CCN(CC(=O)O)CCN(CC(=O)O)CC1)C(=O)N[C@H]1CC(=O)NCCCC[C@@H](C(N)=O)NC(=O)[C@H](Cc2c[nH]c3ccccc23)NC(=O)[C@H](CCCNC(=N)N)NC(=O)[C@@H](Cc2ccccc2)NC(=O)[C@H](Cc2c[nH]cn2)NC1=O (stereo partly drawn) [lutetium-177 labelled] | – | C57 mice, tumour-bearing, bone | intravenous, 0.037 MBq, 0.5 h | 1.55 ± 0.27 %ID/g |
| COc1cccc(OC)c1-c1cc(C(=O)NC2(C(=O)O)C3CC4CC(C3)CC2C4)nn1-c1ccc(C(=O)NCCNC(=O)[C@H](CCCCNC(=O)[C@H](CC(C)C)NC(=O)C2OC2C(=O)O)NC(=O)CN2CCN(CC(=O)[O-])CCN(CC(=O)[O-])CCN(CC(=O)[O-])CC2)cc1C(C)C.[177Lu+3] (mixture of isomers) | – | mouse, HT-29 xenograft, heart | 168 h post injection | 0.05 %ID/g |
| CCCC[C@H](NC(=O)COCCOCCNC(=O)CN1CCN(CC(=O)O)CCN(CC(=O)O)CC1)C(=O)N[C@H]1CC(=O)NCCCC[C@@H](C(N)=O)NC(=O)[C@H](Cc2c[nH]c3ccccc23)NC(=O)[C@H](CCCNC(=N)N)NC(=O)[C@@H](Cc2ccccc2)NC(=O)[C@H](Cc2c[nH]cn2)NC1=O [fluorine-18 labelled] | – | C57 mice B16-F10 melanoma, spleen | intravenous, 0.37 MBq, 1 h | 0.25 ± 0.15 %ID/g |
| CC(C)C[C@H](NC(=O)[C@@H](CCCCNC(=O)[C@@H](Cc1ccccc1)NC(=O)CCCCCCCNC(=O)CN1CCN(CC(=O)O)CCN(CC(=O)O)CCN(CC(=O)O)CC1)NC(=O)[C@H](Cc1ccc(O)cc1)NC(=O)[C@H](CO)NC(=O)[C@H](Cc1c[nH]c2ccccc12)NC(=O)[C@H](Cc1c[nH]cn1)NC(=O)[C@@H]1CCC(=O)N1)C(=O)N[C@@H](CCCNC(=N)N)C(=O)N1CCC[C@H]1C(=O)NCC(N)=O [indium-111 labelled] | biodistribution | male athymic nude mice, DU-145 prostate cancer xenograft, spleen | intravenous, 0.037 MBq, 1 h post-injection | 0.41 ± 0.18 %ID/g |
| [123I]c1ccc2nc(-c3ccc(-n4ccnn4)nc3)cn2c1 | – | male Wistar rat, small intestine | intravenous, 4 MBq, 1 h | 12.7 ± 0.886 %ID/g |
| COc1cccc(OC)c1-c1cc(C(=O)NC2(C(=O)O)C3CC4CC(C3)CC2C4)nn1-c1ccc(C(=O)N(C)CCOCCOCCN(C)C(=O)[C@H](CCCCNC(=O)[C@H](CC(C)C)NC(=O)C2OC2C(=O)O)NC(=O)CN2CCN(CC(=O)[O-])CCN(CC(=O)[O-])CCN(CC(=O)[O-])CC2)cc1C(C)C.[177Lu+3] (mixture of isomers) | – | mouse, HT-29 xenograft, liver | 72 h post injection | 0.75 %ID/g |
| Cc1cc(C)n(CCN(CCN)CCCCCCNC(=O)[C@@H](N)Cc2c[nH]cn2)n1.[99Tc+].[C-]#[O+].[C-]#[O+].[C-]#[O+] | – | BALB/c nude mice, A549 xenograft, tumor | intravenous, 15 min | 2.12 ± 0.04 %IA/g |
| [11CH3]N1CCC(NC(=O)c2cc(-c3c(O)cc(O)cc3Oc3ccc([N+](=O)[O-])cc3)on2)CC1 | – | Wistar rat, female, healthy, spleen | intravenous, 60 min | 0.3 %ID |
| O=C(O)CCCOc1ccc([18F])cc1-c1cc(-c2ccccc2C(F)(F)F)n(-c2ccccc2)n1 | – | mouse, blood | intravenous, dose not given, 180 min | 0.25 ± 0.06 %ID/g |

Excerpt of the above:
| Structure (SMILES) | assay | test system | setting | tissue uptake |
| --- | --- | --- | --- | --- |
| COc1cccc(OC)c1-c1cc(C(=O)NC2(C(=O)O)C3CC4CC(C3)CC2C4)nn1-c1ccc(C(=O)N(C)CCOCCN(C)C(=O)[C@H](CCCCNC(=O)[C@H](CC(C)C)NC(=O)C2OC2C(=O)O)NC(=O)CN2CCN(CC(=O)[O-])CCN(CC(=O)[O-])CCN(CC(=O)[O-])CC2)cc1C(C)C.[177Lu+3] (mixture of isomers) | – | mouse, HT-29 xenograft, liver | 168 h post injection | 0.3 %ID/g |
| N#C[C@@H]1CC(F)(F)CN1C(=O)CNC(=O)c1ccnc2c(NC(=O)[C@H](CCCCNC(=O)CCOCCOCCOCCOCCOCCOCCNC(=O)CN3CCN(CC(=O)[O-])CCN(CC(=O)[O-])CCN(CC(=O)[O-])CC3)NC(=O)CCCc3ccc(I)cc3)cccc12.[177Lu+3] | – | mouse, U-87 MG tumour xenograft, kidneys | 96 h | 0.64 ± 0.18 %ID/g |
